Values quoted from earlier work, collected from citations in different studies.
Compare with care: the assays were run in different laboratories. ± marks the error that the study gave. In brackets after ≈: the same amount, converted by molar mass.

SMILES	assay	test system	conditions	how to read	measurement	value
C=C[C@@H]1C[C@]1(NC(=O)[C@@H]1C[C@@H](Oc2nccc3ccccc23)CN1C(=O)[C@@H](NC(=O)OC(C)(C)C)C(C)(C)C)C(=O)NS(=O)(=O)C1CC1	–	rat	oral, dose not given	–	oral bioavailability	20%
CC(C)S(=O)(=O)c1cccc(O)c(=O)c1O	–	–	–	–	pKa2	11
C=C[C@@H]1C[C@]1(NC(=O)[C@@H]1C[C@@H](Oc2cc(-c3ccccc3)nc3cc(OC)ccc23)CN1C(=O)[C@@H](NC(=O)OC(C)(C)C)C(C)(C)C)C(=O)NS(=O)(=O)C1CC1	–	dog, plasma	intravenous, dose not given	–	half-life	0.6 h
CC(C)OC(=O)[C@H](CO)NCc1cc(Cl)c(OCc2cccc(-c3ccccc3)c2Br)cc1OCc1cccnc1	–	rat liver S9	40 min	–	transformation	100%
COC(=O)c1cc(=O)n(C)c2cc(-c3ccc(OC)cc3)sc12	–	dichloromethane	10 µM	–	absolute quantum yield	90%
CC#N.Cc1ccc(O)c(CN(CCN(Cc2ccccn2)Cc2ccccn2)Cc2ccccn2)c1.[Mn+2]	–	–	concentration not given	–	reduction potential Mn(III)/Mn(II)	466 mV vs Ag/AgCl
Cc1ccccc1-c1cc(N2CC[N+](C)([O-])CC2)ncc1N(C)C(=O)C(C)(C)c1cc(C(F)(F)F)cc(C(F)(F)F)c1	–	healthy volunteers, plasma	oral, dose not given, netupitant-palonosetron, fasted	–	Tmax	4.64 h
CC(C)[C@@H]1CC[C@@H](C)C[C@H]1C(=O)NCCc1ccccn1	–	mouse, bone marrow polychromatic erythrocytes	oral gavage, up to 2000 mg/kg	–	micronucleus formation	negative
O=C([O-])CN(CCN(CC(=O)[O-])CC(=O)NCCc1c[nH]c2ccc(O)cc12)CCN(CC(=O)[O-])CC(=O)NCCc1c[nH]c2ccc(O)cc12.[Gd+3]	–	PBS	40 °C, 0.47 T	–	relaxivity r1	4.3 mM⁻¹ s⁻¹
O=C([O-])CN1CCN(CC(=O)[O-])CCN(Cc2cc(-c3ccc(OCC(=O)O)cc3)cc(C(=O)[O-])n2)CCN(CC(=O)[O-])CC1.[Eu+3]	–	–	–	–	Eu3+ emission quantum yield	0.14
CC(C)(C)[C@H](NC(=O)[C@H](CCONC(=N)N)NC(=O)Cc1ccc(CNC(=N)N)cc1)C(=O)N[C@@H](CCONC(=N)N)C(=O)NCc1ccc(C(=N)N)cc1	–	mouse	intraperitoneal	–	tolerated dose	15 mg/kg
Cc1cc(N)nc(C[C@@H]2CNC[C@@H]2OCCNCCc2cccc(F)c2)c1 (racemic)	–	pregnant rabbits	dose not given	–	toxicity	not toxic
c1csc(CNc2cc[nH]n2)c1	–	female rat	oral, 30 mg/kg of parent drug, measured as metabolite	–	Cmax	1.54 µg/mL
CCN(CC)C(=O)c1ccc(-c2c3ccc(=[N+](C)C)cc-3sc3cc4c(cc23)C(C)(C)CCN4C)s1	–	methanol	–	–	molar extinction coefficient	67700 M⁻¹ cm⁻¹
Nc1ncnc2c1ncn2[C@H]1C[C@H](O)[C@@H](COP(=O)(O)OP(=O)(O)C(F)(Cl)P(=O)(O)O)O1 (some centres unmarked)	measured: bisphosphonate leaving group	aqueous solution	measured experimentally	–	pKa4	8.4
C[N+]1=C(C=CC=CC=C2N(CCCCCC(=O)O)c3ccccc3C2(C)C)C(C)(C)c2cc(S(=O)(=O)[O-])ccc21	–	PBS	–	–	fluorescence quantum yield	13%
CC[C@H](C)[C@H](NC(=O)CNC(=O)[C@H](CCCCN)NC(=O)[C@H](Cc1ccc(O)cc1)NC(=O)[C@H](CCCCN)NC(=O)[C@H](CC(C)C)NC(=O)[C@H](CCC(N)=O)NC(=O)[C@H](Cc1ccc(O)cc1)NC(=O)[C@H](CC(C)C)NC(=O)[C@H](CCC(=O)O)NC(=O)[C@H](CCC(N)=O)NC(=O)[C@H](Cc1c[nH]c2ccccc12)NC(=O)[C@@H](NC(=O)[C@H](CC(C)C)NC(=O)[C@H](CCCCN)NC(=O)CNC(=O)[C@H](CCCCN)NC(=O)[C@H](CC(C)C)NC(=O)[C@H](CO)NC(=O)[C@H](CC(C)C)NC(=O)[C@H](CO)NC(=O)[C@H](CC(C)C)NC(=O)[C@H](CO)NC(=O)CNC(=O)[C@H](CCCNC(=N)N)NC(=O)[C@H](CC(C)C)NC(=O)[C@H](CO)NC(=O)[C@H](CC(C)C)NC(=O)[C@H](CO)NC(=O)[C@H](CC(C)C)NC(=O)[C@H](CO)NC(=O)[C@H](CCCCN)NC(C)=O)[C@@H](C)O)C(N)=O	–	Wistar rat (healthy)	subcutaneous dorsal implant, dose not given	–	degradation time	≤ 3 weeks
O=C1C=Cc2c(c(-c3ccccc3)cn2S(=O)(=O)c2ccccc2)C1=O	–	aqueous buffer with 20% DMSO	–	–	solubility	4.2 µM (≈ 1.53 µg/mL)
COc1ccc(Nc2nccc(-c3c[nH]nc3-c3cccnc3)n2)cc1	–	rat liver microsomes	60 min	–	remaining compound	0%
COCCOCCOCCOCCC(=O)NCc1cc(CNC(=O)CCOCCOCCOCCOC)cc(-c2cc3cc4nc(c(OC)c5[nH]c(cc6nc(cc2[nH]3)CC6(C)C)cc5-c2cc(CNC(=O)CCOCCOCCOCCOC)cc(CNC(=O)CCOCCOCCOCCOC)c2)CC4(C)C)c1	–	PBS	room temperature	–	Qy emission maximum	733 nm
COc1cc2c(NC3CCN(C)CC3)nc(N3CCCN(C)CC3)nc2cc1OCc1ccccc1	–	simulated gastric fluid	pH 2	–	kinetic solubility	> 0.1 mg/mL
Cc1ccccc1-c1cc(N2CCNCC2)ncc1N(C)C(=O)C(C)(C)c1cc(C(F)(F)F)cc(C(F)(F)F)c1	–	healthy volunteers, plasma	oral, 450 mg, single dose, together with: palonosetron 0.75 mg	–	AUC(0-inf)	8.07 µg·h/mL
COc1cc(/C=C/C(=O)CC(=O)CCc2ccc(O)c(OC)c2)ccc1O	–	–	–	–	logP	3.77
CC(=O)N[C@H](CC(=O)O)C(=O)N[C@H](Cc1c[nH]c2ccccc12)C(=O)N[C@H](Cc1ccccc1)C(=O)N[C@H](CCCCN)C(=O)N[C@H](C)C(=O)N[C@H](Cc1ccccc1)C(=O)N[C@H](Cc1ccc(O)cc1)C(=O)N[C@H](CC(=O)O)C(=O)N[C@H](CCCCN)C(=O)N[C@@H](C(=O)N[C@H](C)C(=O)N[C@H](CCC(=O)O)C(=O)N[C@H](CCCCN)C(=O)N[C@H](Cc1ccccc1)C(=O)N[C@H](CCCCN)C(=O)N[C@H](CCC(=O)O)C(=O)N[C@H](C)C(=O)N[C@H](Cc1ccccc1)C(N)=O)C(C)C	–	apoE-knockout mouse, plasma	up to 45 mg/kg	reference: subcutaneous over oral	plasma level ratio	~1000 fold
CN1CCc2nc(C(=O)N[C@@H]3C[C@@H](C(=O)N(C)C)CC[C@@H]3NC(=O)C(=O)Nc3ccc(Cl)cn3)sc2C1	–	human	dose not given, time not given, enzymatic hydrolysis	–	share of clearance by hydrolysis	< 10%
CC(=O)c1cnc(N)nc1N1CC[C@H]1c1nn2ccc(Cl)c2c(=O)n1-c1ccccc1	–	female Wistar rat	oral, 10 mg/kg	–	oral bioavailability	104 ± 18%
CN1CCN(c2cc(-c3ccccc3CO)c(N(C)C(=O)C(C)(C)c3cc(C(F)(F)F)cc(C(F)(F)F)c3)cn2)CC1	–	patients, plasma	oral, dose not given, netupitant-palonosetron combination, together with: docetaxel 75 to 100 mg/m^2 IV	–	AUC(0-inf)	5.95 µg·h/mL
C=C[C@@H]1C[C@]1(NC(=O)[C@@H]1C[C@@H](Oc2ncc(OC)c3cc(Cl)ccc23)CN1C(=O)[C@@H](NC(=O)OC(C)(C)C)C(C)(C)C)C(=O)NS(=O)(=O)C1CC1	–	isolated perfused rabbit heart	10 µM, time not given	–	sinus node recovery time change	27%
CN1CCC(C)(C)c2cc3c(-c4ccc(C(=S)N5CCCCC5)s4)c4ccc(=[N+](C)C)cc-4sc3cc21	–	methanol	–	–	absorption maximum	598 nm

A few entries again:
SMILES	assay	test system	conditions	how to read	measurement	value
CC(C)[C@@H]1CC[C@@H](C)C[C@H]1C(=O)NCCc1ccccn1	–	mouse, bone marrow polychromatic erythrocytes	oral gavage, up to 2000 mg/kg	–	micronucleus formation	negative
CN1CCC(C)(C)c2cc3c(-c4ccc(C(=S)N5CCCCC5)s4)c4ccc(=[N+](C)C)cc-4sc3cc21	–	methanol	–	–	absorption maximum	598 nm
Cc1ccccc1-c1cc(N2CC[N+](C)([O-])CC2)ncc1N(C)C(=O)C(C)(C)c1cc(C(F)(F)F)cc(C(F)(F)F)c1	–	healthy volunteers, plasma	oral, dose not given, netupitant-palonosetron, fasted	–	Tmax	4.64 h
Nc1ncnc2c1ncn2[C@H]1C[C@H](O)[C@@H](COP(=O)(O)OP(=O)(O)C(F)(Cl)P(=O)(O)O)O1 (some centres unmarked)	measured: bisphosphonate leaving group	aqueous solution	measured experimentally	–	pKa4	8.4
C[N+]1=C(C=CC=CC=C2N(CCCCCC(=O)O)c3ccccc3C2(C)C)C(C)(C)c2cc(S(=O)(=O)[O-])ccc21	–	PBS	–	–	fluorescence quantum yield	13%
